Measurements pooled from the literature.
Several values in a cell are separate wells, animals, samples, runs or records.
Target: cGMP-dependent protein kinase 2 (PRKG2, Homo sapiens, UniProt Q13237)
One construct used (Q13237 1-762): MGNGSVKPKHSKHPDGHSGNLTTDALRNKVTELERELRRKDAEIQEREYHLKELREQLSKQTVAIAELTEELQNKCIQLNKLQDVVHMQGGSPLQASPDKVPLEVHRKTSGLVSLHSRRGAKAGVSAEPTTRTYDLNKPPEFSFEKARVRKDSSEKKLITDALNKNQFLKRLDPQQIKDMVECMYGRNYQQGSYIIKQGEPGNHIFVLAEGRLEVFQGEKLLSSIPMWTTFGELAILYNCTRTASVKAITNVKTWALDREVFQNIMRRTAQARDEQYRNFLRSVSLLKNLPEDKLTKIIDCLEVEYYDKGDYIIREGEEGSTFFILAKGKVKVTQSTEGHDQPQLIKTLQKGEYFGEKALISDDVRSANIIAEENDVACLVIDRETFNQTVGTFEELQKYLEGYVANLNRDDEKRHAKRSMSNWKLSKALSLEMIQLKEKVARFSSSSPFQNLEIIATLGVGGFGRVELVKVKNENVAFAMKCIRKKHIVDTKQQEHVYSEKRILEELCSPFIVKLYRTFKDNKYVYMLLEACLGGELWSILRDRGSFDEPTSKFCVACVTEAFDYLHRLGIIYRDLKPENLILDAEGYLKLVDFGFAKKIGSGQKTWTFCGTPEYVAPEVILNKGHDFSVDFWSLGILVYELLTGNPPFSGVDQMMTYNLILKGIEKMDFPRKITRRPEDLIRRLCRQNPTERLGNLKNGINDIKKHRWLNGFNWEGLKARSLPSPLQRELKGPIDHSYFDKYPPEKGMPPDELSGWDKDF

`C=CC(=O)Nc1cccc(-c2cnc3[nH]cc(C(=O)NC(C)(C)C)c3n2)c1` has an inhibition of 3% and -1% (kinase activity; 0.1 µM).
For `Cc1cnc2nc1Nc1cccc(c1)COC/C=C/COCc1cc(ccc1OCCN1CCOCC1)N2`, the remaining binding was 100% (binding; 0.1 µM).
`Nc1ncc2c(n1)-c1c([nH]c3ccc(C4=CCOCC4)cc13)CCC2` has a remaining binding of 94% (binding, competition with immobilised ligand; 1 µM).
`COCC12C(=O)NC3C4(C(OC)CC1O)C1CC5(O)C(OC)C(O)C(OC(C)=O)(C1C5OC(=O)c1ccccc1)C3(O)C(OC)C24` (stereo not drawn) gave a remaining activity of 117% and 110% (kinase activity, inhibitor, ProQinase kinase profiling; 25 µM; reference: control).
The inhibition of `CN1CC[C@@H](COc2cnc(C#N)cc2-c2ccn3nc(NC(=O)C4CC4)cc3c2)C1` is reported as 3% (enzyme activity, inhibitor; 1 µM).
With `CNC(=O)C1CCN(c2cc(C)c(F)cc2NC(=O)c2ccc(-c3cc(O)ccc3C)c(C)c2)CC1` the remaining binding was 94% (binding, competition with immobilised ligand; 1 µM).
`CNC1C[S+]2CC[S+]3CC[S+](C1)[Ru-4]321([N]=C=S)[n]2c3ccc(OC)cc3c3c4c(c5cc(F)c[n+]1c5c32)C(=O)NC4=O` (stereo not drawn) has a remaining binding of 26% (KinomeScan; 0.1 µM; reference: untreated).
The inhibition of `NC(=O)[C@@H](O)C[C@H]1CCc2sc3ncnc(O[C@H]4CC[C@H](N5CCOCC5)CC4)c3c21` is reported as 10% (enzyme activity, inhibitor; 10 µM).
`CN1CCN(Cc2ccc(-c3ccc(CO[C@H]4CCC[C@@H]4NC(=O)c4cc(-c5cnn(C)c5)cnc4N)cc3)cc2)CC1` has an inhibition of 6% (enzyme activity, inhibitor; 0.1 µM).
With `CC(C)=CC1OC(C)(C)C2C=C3C(=O)C(Cl)=CC(O)C3C3C(O)C4OC4C(=O)C132` (stereo not drawn) the remaining binding was 74% (cell-free assay, competition with immobilised ligand; 10 µM).
`COc1cc(Nc2nccc(-c3cnn4nc(OC)ccc34)n2)cc(C(F)(F)F)c1` gave a remaining binding of 83% (binding, competition with immobilised ligand; 1 µM).
With `Cc1ccc(-c2c(/C=C(\C#N)C(=O)NC(C)C)n(CCCO)c3ncnc(N)c23)cc1` the remaining binding was 98% (cell-free assay, competition with immobilised ligand; 1 µM).

Repeated from above:
`CNC1C[S+]2CC[S+]3CC[S+](C1)[Ru-4]321([N]=C=S)[n]2c3ccc(OC)cc3c3c4c(c5cc(F)c[n+]1c5c32)C(=O)NC4=O` (stereo not drawn) has a remaining binding of 26% (KinomeScan; 0.1 µM; reference: untreated).
